Assay results from different studies.
Lines come from different studies, so protocols differ. Several values in a cell are separate wells, animals, samples, runs or records. Numbers after ± are the reported error.
BCAR3 SH2 domain: Breast cancer anti-estrogen resistance protein 3, SH2 domain (BCAR3, Homo sapiens, UniProt O75815)
Sequence of UniProt O75815 (whole entry, looked up): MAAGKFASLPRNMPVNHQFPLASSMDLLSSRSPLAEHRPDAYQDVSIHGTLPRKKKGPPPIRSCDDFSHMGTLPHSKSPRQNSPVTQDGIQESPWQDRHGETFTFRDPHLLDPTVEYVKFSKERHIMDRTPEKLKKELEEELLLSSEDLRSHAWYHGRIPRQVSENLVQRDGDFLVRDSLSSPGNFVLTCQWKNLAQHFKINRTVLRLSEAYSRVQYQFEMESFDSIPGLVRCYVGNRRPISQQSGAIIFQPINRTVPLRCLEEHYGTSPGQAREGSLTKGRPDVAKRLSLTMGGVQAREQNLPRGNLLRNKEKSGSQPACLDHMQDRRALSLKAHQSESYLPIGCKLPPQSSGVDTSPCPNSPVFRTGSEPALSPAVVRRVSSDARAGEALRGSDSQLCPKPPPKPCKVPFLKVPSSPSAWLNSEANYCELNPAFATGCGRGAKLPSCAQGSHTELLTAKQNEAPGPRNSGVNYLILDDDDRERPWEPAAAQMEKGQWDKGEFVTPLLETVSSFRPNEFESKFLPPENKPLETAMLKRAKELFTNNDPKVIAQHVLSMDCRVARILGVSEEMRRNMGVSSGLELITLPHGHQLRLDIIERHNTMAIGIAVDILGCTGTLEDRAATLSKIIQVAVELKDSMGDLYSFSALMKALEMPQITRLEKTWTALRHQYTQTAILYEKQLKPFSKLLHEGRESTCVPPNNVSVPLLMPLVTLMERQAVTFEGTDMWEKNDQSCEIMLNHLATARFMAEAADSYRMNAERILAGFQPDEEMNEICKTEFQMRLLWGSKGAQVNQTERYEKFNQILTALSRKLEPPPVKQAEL
Sequence of UniProt Q7Z569 (whole entry, looked up): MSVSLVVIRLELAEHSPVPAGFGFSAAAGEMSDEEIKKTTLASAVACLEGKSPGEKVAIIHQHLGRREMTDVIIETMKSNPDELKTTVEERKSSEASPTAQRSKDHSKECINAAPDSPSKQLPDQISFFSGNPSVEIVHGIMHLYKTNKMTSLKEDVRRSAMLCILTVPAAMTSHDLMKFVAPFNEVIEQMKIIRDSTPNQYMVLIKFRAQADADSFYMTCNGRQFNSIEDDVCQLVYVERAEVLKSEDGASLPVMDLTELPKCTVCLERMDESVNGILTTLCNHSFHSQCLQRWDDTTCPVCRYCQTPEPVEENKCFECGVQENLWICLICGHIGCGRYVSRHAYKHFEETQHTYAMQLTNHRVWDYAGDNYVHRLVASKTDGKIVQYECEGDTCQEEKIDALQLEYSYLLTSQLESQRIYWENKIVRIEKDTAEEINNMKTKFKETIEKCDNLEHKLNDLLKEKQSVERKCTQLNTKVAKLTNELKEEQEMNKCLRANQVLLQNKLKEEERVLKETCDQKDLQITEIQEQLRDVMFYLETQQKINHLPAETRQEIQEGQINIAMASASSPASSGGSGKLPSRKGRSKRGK
Sequence of UniProt Q9HCP0 (whole entry, looked up): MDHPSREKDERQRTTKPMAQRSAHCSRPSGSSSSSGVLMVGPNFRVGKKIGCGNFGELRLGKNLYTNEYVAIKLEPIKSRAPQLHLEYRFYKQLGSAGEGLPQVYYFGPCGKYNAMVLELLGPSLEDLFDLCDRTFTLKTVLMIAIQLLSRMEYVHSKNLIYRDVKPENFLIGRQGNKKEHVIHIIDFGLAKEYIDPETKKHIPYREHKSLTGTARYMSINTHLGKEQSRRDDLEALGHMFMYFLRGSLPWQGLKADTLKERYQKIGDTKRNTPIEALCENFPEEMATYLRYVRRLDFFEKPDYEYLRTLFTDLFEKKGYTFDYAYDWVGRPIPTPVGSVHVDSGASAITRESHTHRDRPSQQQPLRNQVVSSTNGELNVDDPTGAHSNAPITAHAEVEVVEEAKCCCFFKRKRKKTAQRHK
Sequence of UniProt P0DW57 (whole entry, looked up): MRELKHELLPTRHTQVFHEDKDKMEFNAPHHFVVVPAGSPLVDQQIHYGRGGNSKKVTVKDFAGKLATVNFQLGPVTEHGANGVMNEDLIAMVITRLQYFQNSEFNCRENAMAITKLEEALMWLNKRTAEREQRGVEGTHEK
Sequence of UniProt P52735 (whole entry, looked up): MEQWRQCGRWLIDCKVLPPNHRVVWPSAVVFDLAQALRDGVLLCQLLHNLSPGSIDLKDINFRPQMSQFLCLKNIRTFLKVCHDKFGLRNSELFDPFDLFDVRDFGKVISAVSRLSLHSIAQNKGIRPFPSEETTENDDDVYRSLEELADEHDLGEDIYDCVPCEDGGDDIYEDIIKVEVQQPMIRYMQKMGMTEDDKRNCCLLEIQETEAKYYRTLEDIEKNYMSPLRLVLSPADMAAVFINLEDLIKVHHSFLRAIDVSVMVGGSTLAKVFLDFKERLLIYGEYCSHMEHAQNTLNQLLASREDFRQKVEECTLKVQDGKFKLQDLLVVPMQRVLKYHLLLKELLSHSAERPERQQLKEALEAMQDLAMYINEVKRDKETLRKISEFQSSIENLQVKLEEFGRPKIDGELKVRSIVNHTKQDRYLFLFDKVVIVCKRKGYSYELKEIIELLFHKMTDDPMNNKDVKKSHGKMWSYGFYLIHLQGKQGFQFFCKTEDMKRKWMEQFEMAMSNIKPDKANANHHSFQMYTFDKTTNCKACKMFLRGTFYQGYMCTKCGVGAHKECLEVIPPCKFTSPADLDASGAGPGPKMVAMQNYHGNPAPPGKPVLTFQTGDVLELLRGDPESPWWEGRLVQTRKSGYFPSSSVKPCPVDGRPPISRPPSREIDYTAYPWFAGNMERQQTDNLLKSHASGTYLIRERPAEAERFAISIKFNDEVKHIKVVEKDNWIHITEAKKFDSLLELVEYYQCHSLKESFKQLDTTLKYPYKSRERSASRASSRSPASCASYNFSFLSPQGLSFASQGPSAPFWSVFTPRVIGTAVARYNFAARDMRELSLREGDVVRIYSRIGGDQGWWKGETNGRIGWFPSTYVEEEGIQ
Sequence of UniProt P02786 (whole entry, looked up): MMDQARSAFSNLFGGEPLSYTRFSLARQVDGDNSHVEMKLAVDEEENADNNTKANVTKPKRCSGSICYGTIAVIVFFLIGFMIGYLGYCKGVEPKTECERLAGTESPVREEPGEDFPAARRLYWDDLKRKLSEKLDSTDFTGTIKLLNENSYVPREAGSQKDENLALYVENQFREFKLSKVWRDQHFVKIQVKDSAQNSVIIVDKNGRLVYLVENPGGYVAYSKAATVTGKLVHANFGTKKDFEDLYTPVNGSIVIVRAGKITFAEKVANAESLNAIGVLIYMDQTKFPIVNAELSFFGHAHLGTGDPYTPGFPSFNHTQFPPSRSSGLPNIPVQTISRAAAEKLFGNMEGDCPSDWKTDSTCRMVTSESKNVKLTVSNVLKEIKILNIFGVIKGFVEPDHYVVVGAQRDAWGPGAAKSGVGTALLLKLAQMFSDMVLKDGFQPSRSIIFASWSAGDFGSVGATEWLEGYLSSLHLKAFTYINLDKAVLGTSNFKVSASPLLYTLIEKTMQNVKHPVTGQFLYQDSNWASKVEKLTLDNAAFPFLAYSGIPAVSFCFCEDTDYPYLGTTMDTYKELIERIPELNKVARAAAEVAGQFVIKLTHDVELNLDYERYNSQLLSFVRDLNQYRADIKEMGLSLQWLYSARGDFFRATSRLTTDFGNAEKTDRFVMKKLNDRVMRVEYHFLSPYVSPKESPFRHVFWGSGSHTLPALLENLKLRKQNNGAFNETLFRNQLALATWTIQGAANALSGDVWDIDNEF
Sequence of UniProt P05108 (whole entry, looked up): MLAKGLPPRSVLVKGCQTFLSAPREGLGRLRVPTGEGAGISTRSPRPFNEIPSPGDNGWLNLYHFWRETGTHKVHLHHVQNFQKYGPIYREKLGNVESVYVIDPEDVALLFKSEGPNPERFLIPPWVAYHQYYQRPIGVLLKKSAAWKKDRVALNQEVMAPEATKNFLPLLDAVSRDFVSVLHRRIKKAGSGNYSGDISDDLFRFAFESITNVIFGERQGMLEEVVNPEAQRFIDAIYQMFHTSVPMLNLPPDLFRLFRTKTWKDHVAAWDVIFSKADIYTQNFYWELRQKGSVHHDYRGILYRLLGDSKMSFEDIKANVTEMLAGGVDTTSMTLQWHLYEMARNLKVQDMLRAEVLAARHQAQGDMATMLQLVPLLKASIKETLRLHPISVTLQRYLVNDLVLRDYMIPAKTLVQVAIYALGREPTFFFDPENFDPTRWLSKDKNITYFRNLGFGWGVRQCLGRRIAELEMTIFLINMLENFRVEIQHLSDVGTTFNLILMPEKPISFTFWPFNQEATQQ
Sequence of UniProt Q16620 (whole entry, looked up): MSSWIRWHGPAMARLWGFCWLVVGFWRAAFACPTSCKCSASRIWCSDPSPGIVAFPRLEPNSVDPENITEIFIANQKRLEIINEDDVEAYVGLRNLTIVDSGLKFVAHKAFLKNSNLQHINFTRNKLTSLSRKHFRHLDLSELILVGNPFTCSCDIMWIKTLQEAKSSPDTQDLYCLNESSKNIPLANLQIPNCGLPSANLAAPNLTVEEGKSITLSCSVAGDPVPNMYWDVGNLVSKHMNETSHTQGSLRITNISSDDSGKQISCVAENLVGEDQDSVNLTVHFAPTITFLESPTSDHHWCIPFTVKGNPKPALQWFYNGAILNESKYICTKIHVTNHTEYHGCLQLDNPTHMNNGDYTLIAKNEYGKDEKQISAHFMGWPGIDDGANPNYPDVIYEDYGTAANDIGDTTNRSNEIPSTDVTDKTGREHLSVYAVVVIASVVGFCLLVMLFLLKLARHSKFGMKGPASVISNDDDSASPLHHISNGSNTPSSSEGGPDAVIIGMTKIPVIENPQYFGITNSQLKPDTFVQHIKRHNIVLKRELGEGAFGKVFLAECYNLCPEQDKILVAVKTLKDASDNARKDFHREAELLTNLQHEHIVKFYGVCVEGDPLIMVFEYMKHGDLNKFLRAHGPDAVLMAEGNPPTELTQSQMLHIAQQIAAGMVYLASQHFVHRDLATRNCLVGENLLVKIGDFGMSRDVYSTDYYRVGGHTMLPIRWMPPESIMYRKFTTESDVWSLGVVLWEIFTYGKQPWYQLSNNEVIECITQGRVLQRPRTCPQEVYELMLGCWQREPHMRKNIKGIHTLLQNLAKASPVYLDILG

C/C1=C\[C@H](C)C[C@H](C)OC(=O)C[C@H](c2ccc(O)cc2)NC(=O)[C@@H](Cc2c(Br)[nH]c3ccccc23)N(C)C(=O)[C@H](C)NC(=O)[C@@H](C)C1 has a Kd of 0.5 µM (bovine cardiac reconstituted thin filament; binding, isothermal titration calorimetry).
CC[C@H](CO)Nc1nc(NCc2ccc(-c3ccccn3)cc2)c2ncn(C(C)C)c2n1 gave a Kd of 12.5 µM (Casein kinase I isoform gamma-1 (CSNK1G1, Homo sapiens, UniProt Q9HCP0); competition affinity chromatography; SH-SY5Y cell extract).
With CC[C@H](C)[C@H](NC(=O)c1ccc2c(c1)C(=O)OC21c2ccc(N(C)C)cc2Oc2cc(N(C)C)ccc21)C(=O)N[C@@H](CCC(=O)O)C(=O)N[C@@H](CO)C(=O)N[C@@H](CO)C(=O)N[C@@H](CC(N)=O)C(=O)N[C@@H](Cc1ccc(O)cc1)C(=O)N[C@@H](CCSC)C(=O)N[C@@H](C)C(=O)N1CCC[C@H]1C(=O)N[C@@H](Cc1ccc(OP(=O)(O)O)cc1)C(=O)N[C@@H](CC(=O)O)C(=O)N[C@@H](CC(N)=O)C(=O)N[C@@H](Cc1ccc(O)cc1)C(=O)N[C@H](C(=O)N1CCC[C@H]1C(=O)N[C@@H](CO)C(=O)N[C@@H](C)C(=O)N[C@@H](CC(=O)O)C(=O)O)C(C)C the Kd was 0.065 µM (Guanine nucleotide exchange factor VAV2, SH2 domain (VAV2, Homo sapiens, UniProt P52735); binding).
With CN(C)c1ccc(C(=C2C=CC(=[N+](C)C)C=C2)c2ccccc2)cc1 the Kd was 1.17 µM (HTH-type transcriptional regulator QacR (qacR, Staphylococcus aureus, UniProt P0A0N4); binding, tryptophan fluorescence quenching).
With Nc1ncnc2c1ncn2[C@@H]1O[C@@H]2COP(=O)(O)OP(=O)(O)OC[C@H]3O[C@@H](O[C@@H]1[C@@H]2O)[C@H](O)[C@@H]3O the Kd was 0.284 µM (Thoeris anti-defense 1 (tad1, Bacillus phage SBSphiJ7, UniProt P0DW57); binding, ITC).
The Kd of CCCCCCCCCCCC(=O)N[C@H]1CCOC1=O is reported as 0.000306 µM (qscR, ligand-binding domain (Pseudomonas aeruginosa, UniProt G3XD77); ligand binding, FRET displacement; ligand-binding domain).
For CC(C)C[C@H](NC(=O)[C@H](CC(C)C)NC(=O)[C@H](CCCCN)NC(=O)c1ccc2c(c1)C(=O)OC21c2ccc(N(C)C)cc2Oc2cc(N(C)C)ccc21)C(=O)NCC(=O)N[C@@H](C)C(=O)N[C@@H](CCC(=O)O)C(=O)N[C@@H](CCC(=O)O)C(=O)N[C@@H](CCCCN)C(=O)N[C@@H](CCC(=O)O)C(=O)N[C@@H](Cc1ccc(OP(=O)(O)O)cc1)C(=O)N[C@@H](Cc1c[nH]cn1)C(=O)N[C@@H](C)C(=O)N[C@@H](CCC(=O)O)C(=O)NCC(=O)NCC(=O)N[C@@H](CCCCN)C(=O)N[C@H](C(=O)N[C@@H](CC(=O)O)C(=O)O)C(C)C, the Kd was 1.08 µM (Tyrosine-protein kinase ABL2, SH2 domain (ABL2, Homo sapiens, UniProt P42684); binding).
CCCC(=O)CC(=O)N[C@H]1CCOC1=O gave a Kd of 0.0377 µM (qscR, DNA-bound dimer (Pseudomonas aeruginosa, UniProt G3XD77); ligand binding, FRET displacement; protein with DNA).
With N=C(N)NCCC[C@H](N)C(=O)O the Kd was 3.24e-05 µM and 1.89e-05 µM and 3.68e-05 µM (uncharacterized protein (Pelagibacter ubique, UniProt Q4FLC2); binding, isothermal titration calorimetry; Candidatus Pelagibacter ubique; two-sets-of-sites model, site 1, with: E108A mutant competing protein).
O=c1cc(-c2ccccc2)oc2c(O)c(O)ccc12 gave a Kd of 0.0146 ± 0.0068 µM (BDNF/NT-3 growth factors receptor (NTRK2, Homo sapiens, UniProt Q16620); binding, tryptophan fluorescence quenching; extracellular domain).
CC(=O)N[C@@H]1[C@@H](O)[C@@H](O)[C@@H](CO)O[C@@H]1O has a Kd of 0.05 ± 0.017 µM (Helix pomatia agglutinin; glycan microarray; 4 glycans per BSA).
CSCC[C@H](NC(=O)[C@H](Cc1ccc(OP(=O)(O)O)cc1)NC(=O)CNC(=O)CNC(=O)[C@H](CC(=O)O)NC(=O)[C@H](CO)NC(=O)[C@H](CCC(=O)O)NC(=O)CNC(=O)[C@@H](NC(=O)[C@H](CC(C)C)NC(=O)[C@H](CO)NC(=O)c1ccc2c(c1)C(=O)OC21c2ccc(N(C)C)cc2Oc2cc(N(C)C)ccc21)[C@@H](C)O)C(=O)N[C@@H](CC(=O)O)C(=O)N[C@@H](CCSC)C(=O)N[C@@H](CO)C(=O)N[C@@H](CCCCN)C(=O)N[C@@H](CC(=O)O)C(=O)N[C@@H](CCC(=O)O)C(=O)N[C@@H](CC(=O)O)C(=O)O has a Kd of 1.27 µM (BCAR3 SH2 domain; binding).
For CC[C@@H](C)[C@@H](NC(=O)[C@@H](Cc1ccc(O)cc1)NC(=O)[C@H]1CCCN1C(=O)[C@@H](CCCNC(=N)N)NC(=O)[C@H](N)Cc1c[nH]cn1)C(=O)N[C@H](C)C(=O)N[C@H](Cc1c[nH]cn1)C(=O)N[C@H](CCCNC(=N)N)C(=O)N[C@@H](C(=O)N[C@H](Cc1ccc(O)cc1)C(=O)N[C@H](CO)C(=O)N[C@H](Cc1ccccc1)C(N)=O)C(C)C, the Kd was 4.4 ± 0.8 µM (Transferrin receptor protein 1 (TFRC, Homo sapiens, UniProt P02786); microscale thermophoresis; 2 h, OFP-tagged protein).
For CC(C)C[C@H](NC(=O)[C@H](Cc1ccc(OP(=O)(O)O)cc1)NC(=O)[C@H](CCC(=O)O)NC(=O)[C@@H]1CCCN1C(=O)[C@H](CC(N)=O)NC(=O)CNC(=O)[C@@H](NC(=O)[C@H](C)NC(=O)[C@@H](NC(=O)[C@H](CO)NC(=O)[C@H](Cc1c[nH]cn1)NC(=O)c1ccc2c(c1)C(=O)OC21c2ccc(N(C)C)cc2Oc2cc(N(C)C)ccc21)[C@@H](C)O)C(C)C)C(=O)N[C@@H](CC(N)=O)C(=O)N[C@H](C(=O)N[C@H](C(=O)N[C@@H](CCC(N)=O)C(=O)N1CCC[C@H]1C(=O)N[C@H](C(=O)N[C@@H](CC(=O)O)C(=O)O)[C@@H](C)O)C(C)C)[C@@H](C)O, the Kd was 1.76 µM (Tyrosine-protein kinase ITK/TSK, SH2 domain (ITK, Homo sapiens, UniProt Q08881); binding).
N=C(N)N has a Kd of 80 µM (Gdx-Clo mutant A60T/A67I/K101N; tryptophan fluorescence).
The Kd of CSCC[C@H](NC(=O)CNC(=O)[C@H](Cc1ccccc1)NC(=O)[C@H](CC(=O)O)NC(=O)CNC(=O)c1ccc2c(c1)C(=O)OC21c2ccc(N(C)C)cc2Oc2cc(N(C)C)ccc21)C(=O)N[C@@H](CO)C(=O)N[C@@H](CCCNC(=N)N)C(=O)N[C@@H](CC(=O)O)C(=O)N[C@H](C(=O)N[C@@H](Cc1ccc(OP(=O)(O)O)cc1)C(=O)N[C@@H](CO)C(=O)N[C@H](C(=O)N[C@@H](CC(=O)O)C(=O)N[C@@H](Cc1ccc(O)cc1)C(=O)N[C@@H](Cc1ccc(O)cc1)C(=O)N[C@@H](CCCNC(=N)N)C(=O)N[C@H](C(=O)N[C@@H](CC(=O)O)C(=O)O)C(C)C)[C@@H](C)O)C(C)C is reported as 1.69 µM (BCAR3 SH2 domain; binding).
CC(C)(C)C(=O)C(Oc1ccc(Cl)cc1)n1ccnc1 (stereo not drawn) gave a Kd of 65.9 µM (7-alpha-hydroxycholest-4-en-3-one 12-alpha-hydroxylase (Homo sapiens, UniProt Q9UNU6); binding; 20 min, pH 7.4).
CC(C)CC[C@@H](O)[C@@H](C)[C@H]1CC[C@H]2[C@@H]3CC=C4C[C@@H](O)CC[C@]4(C)[C@H]3CC[C@]12C has a Kd of 0.078 µM (Cholesterol side-chain cleavage enzyme, mitochondrial (CYP11A1, Homo sapiens, UniProt P05108); substrate binding; with: adrenodoxin 40-fold excess).
The Kd of Nc1ncnc2c1ncn2[C@@H]1O[C@H](CO)[C@@H](OP(=O)(O)O)[C@H]1O is reported as 30000 µM (Thermonuclease, denatured (nuc, Staphylococcus aureus, UniProt P00644); binding; pH 7).
O=C(O)CCCN1CC=C(c2ccccc2)CC1 gave a Kd of greater than 1000 µM (BRCA1-associated protein, ZnF-UBD domain (BRAP, Homo sapiens, UniProt Q7Z569)).
The Kd of CCS(=O)(=O)N1CC(CC#N)(n2cc(-c3ncnc4[nH]ccc34)cn2)C1 is reported as 40.5 µM (Alpha-1-acid glycoprotein 1 (ORM1, Homo sapiens, UniProt P02763); binding, fluorescence quenching; 308 K).

A few entries again:
The Kd of CCCCCCCCCCCC(=O)N[C@H]1CCOC1=O is reported as 0.000306 µM (qscR, ligand-binding domain (Pseudomonas aeruginosa, UniProt G3XD77); ligand binding, FRET displacement; ligand-binding domain).
